Results gathered from unrelated publications.
± marks the error that the study gave.

SMILES	test	test system	setting	scale	AUC(0-inf)
CNC(=O)n1ccc2cc(Oc3ccnc(NC(=O)c4ccc(C5CCN(CCO)CC5)cc4)c3)c(OCCOC)cc21		healthy human, plasma	oral, 35 mg, geometric mean, added: rabeprazole 20 mg		117 ng·h/mL
Cn1cc(-c2ccc(S(=O)(=O)[C@@H]3C[C@@H](C(=O)NC4(C#N)CC4)N(C(=O)C4(C(F)(F)F)CC4)C3)c(C(F)(F)F)c2)cn1	noncompartmental analysis	human, plasma	oral, 200 mg, day 1, with food, geometric mean		22300 ng·h/mL
O=C(/C=C/CN1CCCCC1)Nc1cc2c(Nc3ccc(F)c(Cl)c3)ncnc2cc1O		human, plasma	oral, 30 mg		331 ng·h/mL
Cn1c(=O)oc2ccc(-c3ccc(C[C@@H](C#N)NC(=O)[C@@H]4CNCCCO4)cc3)cc21		human, moderate renal impairment, plasma	oral, 25 mg single dose, geometric least squares mean		4300 ng·h/mL
NC(=O)c1[nH]cnc1N		human patients, plasma	IV infusion over 1 h, 1000 mg/m^2 DTIC, cycle 1 day 1, DTIC alone		25500 ng·h/mL
CC1(COc2ccc3c(c2)ncn3-c2ccc3cccc(N4CCC(N)CC4)c3n2)COC1		human patients, recurrent/progressive HGG or DIPG, serum	oral, 170 mg/m^2, day 1, median		9.7 µM·h
CNC(=O)c1c(C)oc2cc(Oc3ncnc4cc(OC)c(OC)cc34)ccc12		human, mild hepatic impairment (NCI), plasma	oral, 2 mg, single dose		5290 ng·h/mL
CC(C)[C@@H]1CC[C@@H](C)C[C@H]1OC(=O)O[C@@H](C)OC(=O)[C@H]1[C@@H]2C[C@H](F)[C@@](N)(C(=O)O)[C@@H]21		human, plasma	oral, 10 mg single dose, fasted		24.7 ng·h/mL
Cn1nnc2c(C(N)=O)ncn2c1=O		human patients, plasma	oral, 20 mg/m2, day 5, dose level DL3, median, added: talazoparib 600 µg/m2		1690 ng·h/mL
C[C@H](Oc1ccc(Br)cc1-c1ccon1)C(=O)O		human, plasma	oral, 400 mg twice daily, day 1, multiple ascending dose		204000 ng·h/mL
Cc1cc(Nc2cc3ncccc3c(N[C@@H]3C[C@H]4CC[C@@H](C3)N4CCC#N)n2)n[nH]1		human, plasma	300 mg single dose, mean		27.9 ng·h/mL
Cc1cc(C)c(CNC(=O)c2cc(Cl)c3c(c2C)O[C@@](C)([C@H]2CC[C@H](N(C)C)CC2)O3)c(=O)[nH]1	geometric LS mean	healthy male humans, plasma	oral, dose not given, added: itraconazole		3180 ng·h/mL
CN(C)C(=O)c1cc2cnc(Nc3ccc(N4CCNCC4)cn3)nc2n1C1CCCC1		human, severe renal impairment, plasma	oral, 400 mg, single dose, adjusted geometric mean		10900 ng·h/mL
CCCCCCCCCCCCCCCC(=O)N[C@@H](CCC(=O)NCCCC[C@@H]1NC(=O)[C@H]([C@@H](C)CC)NC(=O)[C@@H](NC(=O)[C@@H]2CCCN2C(=O)[C@H](Cc2ccccc2)NC(=O)[C@H](Cc2c[nH]cn2)NC(=O)[C@@H](NC(=O)[C@H](CC(=O)O)NC(=O)CC(C)C)[C@@H](C)O)CSSC[C@@H](C(=O)N[C@@H](CCCCN)C(N)=O)NC(=O)CNC(=O)[C@H](CCCCN)NC(=O)[C@H](CO)NC(=O)[C@H](CCCNC(=N)N)NC(=O)[C@@H]2CCCN2C(=O)[C@H](CCC(=O)O)NC(=O)[C@H](Cc2ccccc2)NC1=O)C(=O)O		healthy human, plasma	subcutaneous, 20 mg, single dose, aqueous formulation		14300 ± 4580 ng·h/mL
C[C@@H](Oc1ccc(S(C)(=O)=O)cc1C(=O)N1C[C@@H]2C[C@]2(c2cc(C(F)(F)F)on2)C1)C(F)(F)F		healthy human volunteers, fasted, plasma	oral, 10 mg single, adjusted geometric mean		3.91 µM·h
CNC(=O)c1ccc(-c2cnc3ncc(Cc4ccc5ncccc5c4)n3n2)cc1F		human moderate hepatic impairment	oral, 200 mg single dose, covariate-adjusted geometric mean		6230 ng·h/mL
N[C@]1(C(=O)O)[C@H]2[C@@H](C[C@@H]1F)[C@@H]2C(=O)O		human, plasma	oral, 10 mg single dose, fasted		513 ng·h/mL
O=C(c1nc2n(n1)[C@H](c1ccccc1)C[C@@H]2F)C1CC1	geometric LS mean	human, high-fat meal, plasma	oral, 75 mg single dose		13000 ng·h/mL
CC(C)(C)[C@@H]1NC(=O)O[C@@H]2CCC[C@H]2OC/C=C/C(F)(F)c2nc3ccccc3nc2O[C@@H]2C[C@@H](C(=O)N[C@]3(C(=O)NS(=O)(=O)C4(C)CC4)C[C@H]3C(F)F)N(C2)C1=O		healthy human subjects, plasma	oral, dose not given, added: carbamazepine twice daily		1290 ng·h/mL
Nc1ccn([C@@H]2O[C@H](CO)[C@@H](O)C2(F)F)c(=O)n1	HPLC-UV	human, plasma	intravenous, 800 mg/m^2, median, before paricalcitol		16300 ng·h/mL
CN1C(=O)[C@@H](NC(=O)c2nnc(Cc3ccccc3)[nH]2)COc2cccnc21		healthy human, fasted, plasma	oral, 30 mg single dose, geometric mean		5570 ng·h/mL
CC(=O)O[C@H]1C(=O)[C@@]2(C)[C@H]([C@H](OC(=O)c3ccccc3)[C@]3(O)C[C@H](OC(=O)[C@H](O)[C@@H](NC(=O)c4ccccc4)c4ccccc4)C(C)=C1C3(C)C)[C@]1(OC(C)=O)CO[C@@H]1C[C@@H]2O	noncompartmental analysis	human cancer patients, plasma	intravenous infusion, 60 mg/m^2, cycle 1 day 1, added: daily oral co-medication		3000 ng·h/mL
N#C[C@H](C[C@@H]1CCCNC1=O)NC(=O)[C@H](CC1CC1)NC(=O)c1cc2cccc(Cl)c2[nH]1		human	225 mg twice daily, day 1		5460 ng·h/mL
C[C@H](O)c1cc(C(=O)N[C@@H](C)Cn2ccc(-c3ccc(C#N)c(Cl)c3)n2)n[nH]1		human, fasted, plasma	oral tablet, 300 mg, geometric mean		10500 ng·h/mL
NC[C@@]1(CC(=O)O)[C@@H]2CC[C@H]3C[C@@H]2[C@@H]1C3		human, moderate renal impairment, plasma	oral, 20 mg single dose, geometric mean		3920 ng·h/mL
C=CC(=O)NC1CCN(c2ncc3ncnc(Nc4ccc(Oc5ccc6c(c5)ncn6C)c(C)c4)c3n2)CC1		human, male, plasma	oral, 240 mg, fed, adjusted geometric mean		60 µM·h

SMILES	test	test system	setting	scale	AUC(0-inf)
O=C(O)CCC(=O)O.[2H]C([2H])([2H])Oc1cc(C)c2[nH]ccc2c1CN1CC[C@@H](C2CC2)C[C@H]1c1ccc(C(=O)O)cc1		healthy humans, fed	oral, 200 mg, single dose, high-fat meal		127000 ng·h/mL
N[C@](CO)(CCc1ccc(Sc2cccc(OCc3ccccc3)c2)cc1Cl)COP(=O)(O)O		human, blood	3 mg MOC, MOC given alone		121 ng·h/mL
CCN1CCN(Cc2ccc(Nc3ncc(F)c(-c4cc(F)c5nc(C)n(C(C)C)c5c4)n3)nc2)CC1		fasted healthy human subjects, plasma	oral, 150 mg, tablet		3110 ng·h/mL
Cn1cncc1[C@@](N)(c1ccc(Cl)cc1)c1ccc2c(c1)c(-c1cccc(Cl)c1)cc(=O)n2C		human, with dose-limiting toxicity, plasma	oral, dose not given, range		1730 to 22700 ng·h/mL
Cl.[2H]C([2H])([2H])CC(=O)c1cnc(NC(=O)C2CC2)cc1Nc1cccc(-c2ncn(C([2H])([2H])[2H])n2)c1OC	geometric mean	human	oral, 40 mg twice daily, day 1, fed, liquid, multiple dose		2630 ng·h/mL
C[C@H]1CN(C(=O)CC#N)[C@]12CCN(c1ncnc3[nH]ccc13)C2		healthy adult humans, plasma	oral, 12 mg single, geometric mean		408 ng·h/mL
CN(CC#N)C(=O)C[C@H](Nc1nc2ccccc2[nH]1)c1cccc(C(F)(F)F)c1		human	intravenous infusion, 5 mg/kg, 1 mg/mL formulation		20900 ± 4310 ng·h/mL
CN(C)N=Nc1[nH]cnc1C(N)=O		human patients, plasma	intravenous, 1000 mg/m^2 over 1 h, cycle 2 day 1, staggered with twice-weekly co-drug		102000 ng·h/mL
C[C@@H](Oc1ccc(S(C)(=O)=O)cc1C(=O)N1C[C@@H]2C[C@]2(c2cc(C(F)(F)F)on2)C1)C(F)(F)F		healthy young humans, plasma	oral, 50 mg single dose		18.3 µM·h
N#CCNC(=O)c1ccc(-c2ccnc(Nc3ccc(N4CCOCC4=O)cc3)n2)cc1		healthy human volunteers, plasma	200 mg momelotinib, day 1, fasted, momelotinib alone		4320 ng·h/mL
CO[C@H]1C[C@@H]2CC[C@@H](C)[C@@](O)(O2)C(=O)C(=O)N2CCCC[C@H]2C(=O)O[C@H]([C@H](C)C[C@@H]2CC[C@@H](OCCO)[C@H](OC)C2)CC(=O)[C@H](C)/C=C(\C)[C@@H](O)[C@@H](OC)C(=O)[C@H](C)C[C@H](C)/C=C/C=C/C=C/1C		human patients, plasma	oral, 5 mg single dose, added: vorolanib 200 mg		398 ± 48.9 ng·h/mL
Cc1cc(C)c(CNC(=O)c2cc(Cl)c3c(c2C)O[C@@](C)([C@H]2CC[C@H](N(C)C)CC2)O3)c(=O)[nH]1		human, plasma	oral, 200 mg [14C] single dose		14200 ng·h/mL
CC(=O)c1cc(C(=O)N[C@@H](C)Cn2ccc(-c3ccc(C#N)c(Cl)c3)n2)[nH]n1		human, fasted, plasma	oral solution, 300 mg 14C-darolutamide, geometric mean		93700 ng⋅h/mL
COc1c(N2C[C@@H]3CCCN[C@@H]3C2)c(F)cc2c(=O)c(C(=O)O)cn(C3CC3)c12		human, plasma	oral, 400 mg, day 5		28100 ± 5870 ng·h/mL
C#C[C@]1(CO)O[C@@H](n2cnc3c(N)nc(F)nc32)C[C@@H]1O		human, plasma	oral, 400 mg, single dose, geometric mean		49 µM·h
COC(=O)N[C@@H](C)CNc1nccc(-c2cn(C(C)C)nc2-c2cc(Cl)cc(NS(C)(=O)=O)c2F)n1		human, plasma	oral, 50 mg, single dose alone	geometric mean	2050 ng·h/mL
C[C@H]1C[C@@H](N2C(=N)N[C@](C)(c3cccc(NC(=O)c4cccc(C#N)c4)c3Cl)CC2=O)CCO1		human	oral, 50 mg		27100 ng·h/mL
Cc1[nH]c(/C=C2\C(=O)Nc3ccc(F)cc32)c(C)c1C(=O)N[C@H]1CCN(C(=O)N(C)C)C1		human patients, plasma	oral, 150 mg single dose, added: everolimus 5 mg		4650 ± 2980 ng·h/mL
CC(C)n1c(Nc2cccnc2)nc2cnc(Nc3ccc(N4CCN(C)CC4)cc3)nc21		human, male, plasma	oral, 150 mg, day 15, added: rifampin 600 mg daily		1000 ng·h/mL
Cc1ccc(C(=O)N(CCCN)C(c2nc3snc(C)c3c(=O)n2Cc2ccccc2)C(C)C)cc1 (stereo not shown)		human	intravenous, all doses pooled, course day 3 following induction, geometric mean		860 ng·h/mL
N[C@@H]1c2cccnc2[C@H](OC(=O)N2CCC(n3c(=O)[nH]c4ncccc43)CC2)CC[C@H]1c1cccc(F)c1F		human, plasma	oral, 75 mg single dose, alone, arithmetic mean, rifampin DDI study		5230 ng·h/mL
C=CC(=O)N(C)CCOc1c(N)ncnc1-c1cc(F)cc(NC(=O)c2ccc(C3CC3)cc2F)c1C		human, whole blood	oral, 600 mg, single ascending dose		1180 ng·h/mL
[H]/N=C(/N)c1ccc(NCc2nc3cc(C(=O)N(CCC(=O)O)c4ccccn4)ccc3n2C)cc1		healthy human subjects, plasma	oral, 150 mg dabigatran etexilate, geometric mean		1010 ng·h/mL
Cn1cncc1[C@@](N)(c1ccc(Cl)cc1)c1ccc2c(c1)c(-c1cccc(Cl)c1)cc(=O)n2C		healthy human subjects, plasma	oral, 100 mg, fasted		1050 ng·h/mL
CCCOc1ccc(NC(=O)CN2CCN(C)CC2)cc1-c1nc(CC)c(CC)c(=O)[nH]1		human, fasting, plasma	oral, 10 mg, added: placebo		569 ± 83 ng·h/mL
CC[C@H](Nc1ncnc2[nH]cnc12)c1oc2ccccc2c(=O)c1-c1cccc(F)c1		human patients, plasma	oral, 600 mg twice daily, added: romidepsin 12 mg/m2		13400 ± 1180 ng·h/mL

A few entries again:
SMILES	test	test system	setting	scale	AUC(0-inf)
CN(C)C(=O)c1cc2cnc(Nc3ccc(N4CCNCC4)cn3)nc2n1C1CCCC1		human, severe renal impairment, plasma	oral, 400 mg, single dose, adjusted geometric mean		10900 ng·h/mL
N#CCNC(=O)c1ccc(-c2ccnc(Nc3ccc(N4CCOCC4=O)cc3)n2)cc1		healthy human volunteers, plasma	200 mg momelotinib, day 1, fasted, momelotinib alone		4320 ng·h/mL
C[C@H]1CN(C(=O)CC#N)[C@]12CCN(c1ncnc3[nH]ccc13)C2		healthy adult humans, plasma	oral, 12 mg single, geometric mean		408 ng·h/mL
CO[C@H]1C[C@@H]2CC[C@@H](C)[C@@](O)(O2)C(=O)C(=O)N2CCCC[C@H]2C(=O)O[C@H]([C@H](C)C[C@@H]2CC[C@@H](OCCO)[C@H](OC)C2)CC(=O)[C@H](C)/C=C(\C)[C@@H](O)[C@@H](OC)C(=O)[C@H](C)C[C@H](C)/C=C/C=C/C=C/1C		human patients, plasma	oral, 5 mg single dose, added: vorolanib 200 mg		398 ± 48.9 ng·h/mL
CN(CC#N)C(=O)C[C@H](Nc1nc2ccccc2[nH]1)c1cccc(C(F)(F)F)c1		human	intravenous infusion, 5 mg/kg, 1 mg/mL formulation		20900 ± 4310 ng·h/mL
Cc1cc(Nc2cc3ncccc3c(N[C@@H]3C[C@H]4CC[C@@H](C3)N4CCC#N)n2)n[nH]1		human, plasma	300 mg single dose, mean		27.9 ng·h/mL
Cn1c(=O)oc2ccc(-c3ccc(C[C@@H](C#N)NC(=O)[C@@H]4CNCCCO4)cc3)cc21		human, moderate renal impairment, plasma	oral, 25 mg single dose, geometric least squares mean		4300 ng·h/mL
Nc1ccn([C@@H]2O[C@H](CO)[C@@H](O)C2(F)F)c(=O)n1	HPLC-UV	human, plasma	intravenous, 800 mg/m^2, median, before paricalcitol		16300 ng·h/mL
